Measured values collected from several papers.
Parts stem from different laboratories: compare values within a part only.

Sample 1
Target: Histone acetyltransferase KAT6A, both winged helices, GST fusion (KAT6A, Homo sapiens, UniProt Q92794, residues 1-181)
Technique: protein binding microarray
Molecule type: double-stranded DNA, one strand shown
Sample: in vitro
Tested at: not given
Notes: 8-mer, flanks averaged, mean of 2 arrays, mostly near background
Reference: not given
Direction: higher = stronger binding
Target sequence (chain): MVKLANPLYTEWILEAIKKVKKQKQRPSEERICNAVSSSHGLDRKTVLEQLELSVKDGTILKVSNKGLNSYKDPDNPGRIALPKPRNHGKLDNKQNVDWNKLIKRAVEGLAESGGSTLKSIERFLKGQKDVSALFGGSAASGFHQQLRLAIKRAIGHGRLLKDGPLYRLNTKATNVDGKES
| Sequence | E-score |
| --- | --- |
| CACCGGCG | 0.252 |
| CCTCACGA | -0.161 |
| ACGGAGCC | 0.228 |
| ACCTAACA | -0.115 |
| GTGGCTGA | -0.0558 |
| GCAGACCC | 0.0119 |

Sample 2
Target: Interferon regulatory factor 3, full length, phosphomimetic (IRF3, Homo sapiens, UniProt Q14653, residues 1-427, S386D/S396D/S398D/S402D/T404D/S405D)
Technique: protein-binding microarray
Molecule type: double-stranded DNA, one strand shown
Sample: in vitro
Tested at: 2540 nM top
Notes: 60-bp whole probe
Together with: salmon DNA 0.4 mg/ml
Reference: random background probes
Direction: higher = stronger binding
Residues (chain): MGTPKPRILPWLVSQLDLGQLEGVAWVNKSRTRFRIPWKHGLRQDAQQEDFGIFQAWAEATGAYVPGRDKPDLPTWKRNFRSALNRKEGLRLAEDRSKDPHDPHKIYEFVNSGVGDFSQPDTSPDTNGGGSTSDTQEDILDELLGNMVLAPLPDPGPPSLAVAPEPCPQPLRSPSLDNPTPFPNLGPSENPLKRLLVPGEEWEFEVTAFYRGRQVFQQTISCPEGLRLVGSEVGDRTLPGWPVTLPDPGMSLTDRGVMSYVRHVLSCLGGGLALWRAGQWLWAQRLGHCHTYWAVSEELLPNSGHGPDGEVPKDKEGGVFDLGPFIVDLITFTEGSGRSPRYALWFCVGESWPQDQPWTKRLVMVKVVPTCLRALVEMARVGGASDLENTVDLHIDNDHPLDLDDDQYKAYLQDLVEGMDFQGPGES
| Sequence | fitted relative affinity [z-score] |
| --- | --- |
| GCCTAGCACTCAGGTTTCCTTCTCCTTTAGTGCTAGGTCTTGATTCGCTTGACGCTGCTG | 9.65 |
| GCCTAGCACTTAGGACTCGGGACTGGGTTAGTGCTAGTCTTGATTCGCTTGACGCTGCTG | -0.959 |
| GCCTAGCACGACGGTTTCGACATTGGGGACGTGCTAGTCTTGATTCGCTTGACGCTGCTG | 3.22 |
| GCCTAGCACTCAAATCTTTTTCCCTAACTGTGCTAGGTCTTGATTCGCTTGACGCTGCTG | 1.48 |

Sample 3
Target: Protein C-ets-1 (ETS1, Homo sapiens, UniProt P14921, residues 1-441, full length assumed)
Technique: protein-binding microarray
Molecule type: double-stranded DNA, one strand shown
Sample: in vitro
Tested at: not given
Notes: k-mer, scored over probes, only values ≥0.25
Direction: higher = stronger binding
Construct (chain): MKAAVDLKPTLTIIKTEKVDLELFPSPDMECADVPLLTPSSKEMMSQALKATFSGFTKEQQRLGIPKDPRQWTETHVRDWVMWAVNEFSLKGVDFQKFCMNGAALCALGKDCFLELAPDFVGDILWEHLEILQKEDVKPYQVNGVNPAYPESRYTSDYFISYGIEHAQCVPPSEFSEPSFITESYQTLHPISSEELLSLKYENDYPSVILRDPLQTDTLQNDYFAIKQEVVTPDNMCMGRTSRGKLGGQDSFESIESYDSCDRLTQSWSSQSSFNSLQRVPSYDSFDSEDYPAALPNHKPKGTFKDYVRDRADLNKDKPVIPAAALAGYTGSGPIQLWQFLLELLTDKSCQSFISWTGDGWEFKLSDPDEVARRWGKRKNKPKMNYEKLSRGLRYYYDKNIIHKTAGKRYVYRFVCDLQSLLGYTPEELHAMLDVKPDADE
| Sequence | E-score |
| --- | --- |
| TCCTGTCA | 0.416 |
| GGGGAAAC | 0.318 |
| GGAAGTAA | 0.458 |
| CACGTCCG | 0.462 |
| GGGAAGTA | 0.431 |
| CAGGACGA | 0.282 |

Mixed results
| Substance | target | assay | system | setting | how to read | measurement | value |
| --- | --- | --- | --- | --- | --- | --- | --- |
| PhoQ, residues 284 288 289 292 302 303 TLSLKA | PhoP, residues 12 14 15 18 19 LHSVW (Escherichia coli, UniProt P23836) | Sort-seq, refers to: YFP reporter | E. coli | PhoQ-PhoP variant library, together with: 10 µM Mg2+ | reference: high Mg2+ state, higher = stronger signaling | fold induction | 1.54 |
